{"data": "Earlier results, collected from citations in different studies", "note": "Compare with care: the assays were run in different laboratories. Numbers after ± are the reported error.", "UniProt Q9NYL2, sequence (whole entry, looked up)": "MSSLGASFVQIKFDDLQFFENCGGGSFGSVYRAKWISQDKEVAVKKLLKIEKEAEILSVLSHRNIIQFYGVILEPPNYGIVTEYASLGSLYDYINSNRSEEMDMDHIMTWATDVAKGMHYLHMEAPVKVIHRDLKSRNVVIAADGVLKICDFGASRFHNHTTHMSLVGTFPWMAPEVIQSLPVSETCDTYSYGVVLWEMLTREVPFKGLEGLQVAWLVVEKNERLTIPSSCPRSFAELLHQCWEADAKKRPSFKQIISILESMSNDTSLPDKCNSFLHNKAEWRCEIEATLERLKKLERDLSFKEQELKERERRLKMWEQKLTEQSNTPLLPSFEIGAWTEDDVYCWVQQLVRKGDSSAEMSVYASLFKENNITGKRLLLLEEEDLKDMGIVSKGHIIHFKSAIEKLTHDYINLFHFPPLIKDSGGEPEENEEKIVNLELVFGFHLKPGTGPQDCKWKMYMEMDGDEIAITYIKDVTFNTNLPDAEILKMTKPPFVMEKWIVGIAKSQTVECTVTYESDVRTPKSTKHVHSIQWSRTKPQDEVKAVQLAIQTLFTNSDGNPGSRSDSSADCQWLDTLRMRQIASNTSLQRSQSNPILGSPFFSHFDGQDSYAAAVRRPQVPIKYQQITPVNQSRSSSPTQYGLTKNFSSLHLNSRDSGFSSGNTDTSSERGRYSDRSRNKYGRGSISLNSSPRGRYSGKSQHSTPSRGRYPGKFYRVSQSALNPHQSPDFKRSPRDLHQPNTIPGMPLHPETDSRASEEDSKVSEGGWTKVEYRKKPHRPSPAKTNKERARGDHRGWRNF"}
{"SMILES": "CC1(C)S[C@@H]2[C@H](NC(=O)[C@H](N)c3ccccc3)C(=O)N2[C@H]1C(=O)O", "tested on": "Acinetobacter pittii", "test system": "clinical isolate RKI-No_588/16", "endpoint": "MIC", "value": "> 16 µg/mL"}
{"SMILES": "Oc1ccc(-c2nc(-c3ccc(OC4CCCC4)cc3)no2)cc1", "tested on": "Acinetobacter baumannii", "test system": "ATCC 17961", "endpoint": "MIC", "value": "> 128 µg/mL"}
{"SMILES": "O=C(O)[C@H]1O[C@@H](Oc2cc3oc(-c4ccccc4)cc(=O)c3c(O)c2O)[C@H](O)[C@@H](O)[C@@H]1O", "tested on": "Mycoplasmoides gallisepticum", "setting": "concentration not given", "endpoint": "AUC24h/MIC for bactericidal effect", "value": "1.49 h"}
{"SMILES": "c1ccc2c(c1)CCNC2c1c[nH]c2ccccc12 (centres unmarked)", "tested on": "Escherichia coli", "assay": "efflux pump inhibition", "test system": "AG100A AcrAB-TolC deleted", "setting": "50 µM", "scale": "relative to: untreated cells", "endpoint": "relative fluorescence index", "value": 0.52}
{"SMILES": "[N-]=[N+]=N[C@]1(CO)O[C@@H](n2ccc(N)nc2=O)[C@@H](F)[C@@H]1O", "tested on": "hepatitis C virus", "assay": "viral replication", "test system": "2209-23 HCV replicon cells", "endpoint": "EC50", "value": "0.024 µM"}
{"SMILES": "CC(=O)Oc1ccccc1C(=O)Nc1ncc([N+](=O)[O-])s1", "tested on": "Cryptosporidium", "test system": "human, older children", "setting": "dose not given", "endpoint": "clinical effectiveness", "value": "> 50%"}
{"SMILES": "C[C@H]1COCCN1c1nc(-c2cnc(N)cc2C(F)F)nc(N2CCOCC2)n1", "tested on": "COLO 205", "endpoint": "GI50", "value": "0.642 µM"}
{"SMILES": "COc1cccc(C(=O)NN(C(=O)c2cc(C)cc(C)c2)C(C)(C)C)c1C", "tested on": "Anopheles gambiae", "test system": "G3, females", "setting": "topical, concentration not given", "endpoint": "mating susceptibility", "value": "decreased"}
{"SMILES": "O=C(/C=C/c1ccc(O)c(O)c1)O[C@@H]1C[C@](O)(C(=O)O)C[C@@H](OC(=O)/C=C/c2ccc(O)c(O)c2)[C@H]1O", "tested on": "hepatitis B virus", "assay": "viral antigen level, measured: HBeAg", "endpoint": "IC50", "value": "158 µM"}
{"SMILES": "CCc1c(Cl)c(O)c(Cl)c(O)c1C(=O)O[C@H]1[C@H](O)[C@H](OC)[C@H](OC/C2=C\\C=C\\C[C@H](O)/C(C)=C/[C@H](CC)[C@@H](O[C@@H]3OC(C)(C)[C@@H](OC(=O)C(C)C)[C@H](O)[C@@H]3O)/C(C)=C/C(C)=C/C[C@@H]([C@@H](C)O)OC2=O)O[C@@H]1C", "tested on": "Lactobacillus reuteri", "test system": "HM-102", "endpoint": "MIC", "value": "> 32 µg/mL"}
{"SMILES": "C[C@@H]1CCO[C@H]2Cn3cc(C(=O)NCc4ccc(F)cc4F)c(=O)c(O)c3C(=O)N12", "tested on": "HIV", "setting": "protein-binding adjusted", "endpoint": "IC90", "value": "0.064 µg/mL"}
{"SMILES": "Oc1c(I)cc(Cl)c2cccnc12", "tested on": "Leishmania amazonensis", "endpoint": "effective inhibitory concentration", "value": "2.55 ± 0.25 µg/mL"}
{"SMILES": "Nc1cc(C(F)(F)F)c(-c2nc(N3CCOCC3)nc(N3CCOCC3)n2)cn1", "tested on": "MAP3K20 (Homo sapiens, UniProt Q9NYL2)", "assay": "enzyme activity", "setting": "10 µM", "scale": "relative to: untreated", "endpoint": "remaining activity", "value": "83%"}
{"SMILES": "CNC(C)C1CCC(N)C(OC2C(N)CC(N)C(OC3OCC(C)(O)C(NC)C3O)C2O)O1 (centres unmarked)", "tested on": "Enterobacter cloacae", "test system": "clinical isolate RKI-No_460/16", "endpoint": "MIC", "value": "> 8 µg/mL"}
{"SMILES": "O=C(/C=C/c1ccc(O)c(O)c1)O[C@H]1[C@H](O)C[C@](O)(C(=O)O)C[C@H]1O", "tested on": "hepatitis B virus", "assay": "rcDNA level", "test system": "HepG2.2.15", "endpoint": "IC50", "value": "13.7 µM"}
{"SMILES": "CCC1=C(CC)/C(=C/NC23CC4CC(CC(C4)C2)C3)N=C1c1ccc[nH]1", "tested on": "Plasmodium yoelii", "test system": "Kenya MRA-428", "setting": "80 mg/kg, single dose, day 5", "endpoint": "parasitemia reduction", "value": "100%"}
{"SMILES": "Cc1cnc(N2CC3(CCOCC3)C2)c(C(=O)Nc2ccc(C(=O)N3CCc4cc(C(=O)Nc5c(C)cccc5F)sc4-c4ccccc43)cc2)c1", "tested on": "respiratory syncytial virus", "assay": "cytopathic effect", "test system": "5 subtype A clinical isolates", "endpoint": "median IC50", "value": "0.00046 µg/mL"}
{"SMILES": "C=C[C@]1(C)C[C@@H](OC(=O)CSC(C)(C)CNC(=O)[C@H](N)C(C)C)[C@]2(C)[C@H](C)CC[C@]3(CCC(=O)[C@H]32)[C@@H](C)[C@@H]1O", "tested on": "Mycoplasmoides gallisepticum", "endpoint": "maximum antibacterial effect", "value": "2.69 log10 CFU/mL"}
{"SMILES": "O=C(Nc1cc(F)c(F)c(F)c1)c1ccc(F)c(S(=O)(=O)N2CCC(O)CC2)c1", "tested on": "hepatitis B virus", "assay": "viral replication", "test system": "HepG2.2.15 cells", "endpoint": "EC50", "value": "0.26 µM"}
{"SMILES": "O=C(/C=C/c1ccc(O)c(O)c1)O[C@@H]1C[C@@](O)(C(=O)O)C[C@@H](O)[C@@H]1O", "tested on": "hepatitis B virus", "assay": "rcDNA level", "test system": "HepG2.2.15", "endpoint": "IC50", "value": "7.3 µM"}
{"SMILES": "COc1cc2c(c(OC)c1OC)-c1c(cc3c(c1OC)OCO3)[C@H](OC(=O)c1ccccc1)[C@@](C)(O)[C@@H](C)C2", "tested on": "HIV", "assay": "viral replication", "endpoint": "EC50", "value": "0.006 µg/mL"}
{"SMILES": "O=c1c(O)c(-c2ccc(O)c(O)c2)oc2cc(O)cc(O)c12", "tested on": "herpes simplex virus 2", "assay": "viral replication", "endpoint": "EC50", "value": "35 µM"}
{"SMILES": "C[C@H](Cn1cnc2c(N)ncnc21)OCP(=O)(O)O", "tested on": "hepatitis B virus", "assay": "measured: HBV DNA", "test system": "human HBeAg-negative patients", "setting": "dose not given, week 8, after discontinuation", "endpoint": "virologic relapse", "value": "72%"}
{"note": "Some of these lines once more:"}
{"SMILES": "O=C(/C=C/c1ccc(O)c(O)c1)O[C@H]1[C@H](O)C[C@](O)(C(=O)O)C[C@H]1O", "tested on": "hepatitis B virus", "assay": "rcDNA level", "test system": "HepG2.2.15", "endpoint": "IC50", "value": "13.7 µM"}
